Published values of several laboratories.
Compare with care: the assays were run in different laboratories. ± marks the error that the study gave.

The clearance of `CC(=O)c1c(C)c2cnc(Nc3ccc(C4CCN(CCS(C)(=O)=O)CC4)cn3)nc2n(C2CCCC2)c1=O` is reported as 1540 mL/min (human, dose-escalation trial, plasma; oral, 150 mg twice daily, day 1, single dose).
`CCN1[C@@H](C(=O)NC23CCC(C(=O)O)(CC2)CC3)[C@H](c2cccc(Cl)c2F)[C@]2(C(=O)Nc3cc(Cl)ccc32)C12CCCCC2` gave a Thrombocytopenia incidence of 52.4% (patients with advanced solid tumours; oral, dose not given, all doses).
`Cn1ncc(-c2nc(N[C@H]3CC[C@H](N)CC3)ncc2Cl)c1CC1CC1` — result for “alanine aminotransferase increase incidence”: 3% (phase I dose escalation; human patients; dose not given, grade 3-4 TEAE; relative to: patients).
For `CCC[C@@](N)(CO)CCc1ccc(OCCCCCC(C)C)cc1`, the Cmax was 596 nM (dog, male hounds, plasma; oral capsule, 20 mg/kg, geometric mean).
For `Cc1cc(OCCOCCC(F)(F)P(=O)(O)O)ccc1CCc1cnc2c(N)nc3cc(CCC(=O)O)ccc3c2c1`, “patients with non-serious AE” read 15.6% (refers to: pruritus; adults with advanced solid tumours; dose not given, all groups pooled, all grades).
`N[C@@H]1c2ccccc2OC12CCN(c1cnc3c(N4CCCc5ncccc54)n[nH]c3n1)CC2` — result for “TEAE leading to withdrawal”: 28.6% (advanced metastatic solid tumour patients; oral, 75 mg once daily).
`CC(C)N(CCc1c[nH]c2cccc(OC(=O)CCCC(=O)O)c12)C(C)C.Cl` has a Tmax of 30 min (male beagle dog, plasma; subcutaneous, 1 mg/kg).
`CC(C)C[C@H](NC(=O)[C@H](CCCCN)NC(=O)OCC1c2ccccc2-c2ccccc21)C(=O)N[C@H](C(=O)N[C@@H](Cc1ccccc1)C(=O)N[C@@H](Cc1ccccc1)C(=O)N[C@@H](CCCCN)C(=O)NCC(=O)N[C@@H](Cc1ccccc1)C(=O)N[C@@H](C)C(=O)N[C@@H](Cc1c[nH]c2ccccc12)C(=O)N[C@@H](CC(N)=O)C(=O)N[C@H](C(=O)N[C@H]1CSSC[C@@H](C(=O)N[C@@H](Cc2c[nH]cn2)C(=O)N[C@@H](CCCNC(=N)N)C(=O)N[C@@H](CCCNC(=N)N)C(=O)N[C@@H](C)C(=O)N[C@@H](CC(N)=O)C(N)=O)NC(=O)[C@H](C(C)C)NC(=O)[C@H](CCCNC(=N)N)NC(=O)[C@H](C(C)C)NC(=O)CNC(=O)[C@H](CC(N)=O)NC(=O)[C@H](CCCNC(=N)N)NC(=O)[C@H](Cc2ccc(O)cc2)NC(=O)[C@H](C(C)C)NC1=O)C(C)C)C(C)C` — result for “mean corpuscular volume”: 40.6 ± 0.72 fL (ICR mice, blood; intraperitoneal, 5 mg/kg, day 5).
With `N.N.[Cl][Pt][Cl]` the uric acid was 7.3 ± 0.4 mg/dL (nude mice, serum; dose not given, 10 days).
`C=CC(=O)Nc1cc(Nc2nccc(Nc3cc(Cl)c(F)cc3C(C)(C)O)n2)c(OC)cc1N1CC[C@@H](N(C)C)C1` — result for “amylase increased TEAE”: 13.7% (human; oral, dose not given).
`CCC1CCCCN1CCCNC(=O)c1sc2nc(C)cc(C)c2c1-n1cccc1` (centres unmarked) gave a maximum response of -8.84% (Vero-E6; CellTiter-Glo ATP; 72 h, retest 8-point duplicates; relative to: DMSO 0%, hyamine -100%, more negative, more toxic).
`CN1CC[C@@H](c2c(O)cc(O)c3c(=O)cc(-c4ccc(C(F)(F)F)cc4Cl)oc23)[C@@H]1CO`: “patients with adverse event” 0% (refers to: Chills; B-cell malignancies; oral, 200 mg, intermittent dosing).
Under “lung deposited fraction”, `CC(C)(C)NCC(O)c1cc(O)cc(O)c1` (centres unmarked) is recorded as 0.23 (human; inhaled).
`CC(C)[C@H](C(=O)O[C@H](C#N)c1cccc(Oc2ccccc2)c1)c1ccc(Cl)cc1`: “enzyme contribution to clearance” 2.11% (refers to: CYP2C19; human, age 6 months).
`O=C(Nc1ccccc1)C1CCN(C(=O)Oc2cccnc2)CC1`: “subjects with Syncope adverse event” 0% (adverse event reporting; healthy women; oral, 100 mg).
The metabolism rate of `Cc1ccc2ccccc2c1` is reported as 110 pmol/min/mg (pooled human liver microsomes; 0.25 µM, pH 7.4).
`O=C1Nc2cc3[nH]nc(-c4ccncc4)c3cc2CN1Cc1ccccc1`: “patients with dizziness” 20% (CTCAE v4.03; advanced solid tumour patients; intravenous, 7.2 mg/kg, schedules 1/2).
`C[C@]1(CO)Cc2ncn(-c3ccc(C#N)c(Cl)c3)c2C(=O)O1` — result for “Tmax at steady state”: 30 min (healthy Japanese adults, plasma; 80 mg once daily, multiple dose).
For `COC[C@@H](CC(C)C)NC(=O)c1ccc(C)c(C)c1`, “micronucleated PCE per 1000 PCE” read 0.2 (Hsd:ICR (CD-1) mouse, female, bone marrow; oral, 2000 mg/kg, 48 h).
`COC[C@]12CN(C)[C@@H]3[C@@H]4[C@H](OC)[C@H]1[C@@]3([C@@H](OC)C[C@H]2O)[C@@H]1C[C@@]2(O)[C@H](OC(=O)c3ccccc3)[C@@H]1[C@]4(OC(C)=O)[C@@H](O)[C@@H]2OC` has a half-life of 240 ± 20.2 min (Sprague-Dawley rat, plasma; oral, dose not given, with NADES in PCW extract).
With `[O-][S+]1CCc2nc(N3CCC(c4ncc(Cl)cn4)CC3)nc(NC3(CO)CCC3)c21` (centres unmarked) the haemoglobin was 132 g/L (refers to: mean; idiopathic pulmonary fibrosis patients, blood; 18 mg twice daily, at last treatment).
For `Cn1cncc1-c1c(F)cncc1NC(=O)c1c(N)nn2cc(F)cnc12`, “grade ≥3 creatinine increased” read 0% (human patients; oral, up to 40 mg once daily).
`CCCCN(C)CCCNC(=O)c1ccc2nc(N3CCCCC3)sc2c1` has a cytotoxicity efficacy of 0% (Vero-E6; CellTiter-Glo ATP; concentration not given, 72 h, retest 8-point duplicates; relative to: DMSO 0%, hyamine -100%, more negative, more toxic).
`CC1(C)[C@H](C(=O)OCc2cccc(Oc3ccccc3)c2)[C@@H]1C=C(Cl)Cl`: “enzyme contribution to clearance” 2.57% (refers to: CYP2B6; human, age 6 months, recombinant human CYP2B6; 0.1 µM).
`C/C(=N\C#N)N(C)Cc1ccc(Cl)nc1` gave a recovery of 17% (soil; 0.12 nominal, 28 days, Folsomia candida soil test).
`C[C@@H]1COCCN1c1cc(C2([S@](C)(=N)=O)CC2)nc(-c2cc[nH]c3nccc2-3)n1` — result for “discontinuation due to adverse event”: 2 % patients (patients, advanced solid tumours; oral, 20 mg twice daily, 10 days, with: carboplatin).
Under “patients with constipation TEAE”, `C=CCNc1c(O)cc2c(O)c1C[C@@H](C)C[C@H](OC)[C@H](O)[C@@H](C)/C=C(\C)[C@H](OC(N)=O)[C@@H](OC)/C=C\C=C(/C)C(=O)N2` is recorded as 17% (unresectable or metastatic STS, GIST, other; intravenous, 90 mg/m^2).
For `CCCSc1ccc2nc(NC(=O)OC)[nH]c2c1`, the haemoglobin was 150 g/L (mouse, blood; oral, 50 mg/kg, tolerability, mean).
`O=[N+]([O-])c1cc2c3c(ccc2c2ccccc12)[C@H](O)[C@@H](O)C=C3` has a tumour incidence of 38% (female Sprague-Dawley rat, mammary gland; intramammary, dose not given, 32 wk, palpable mammary tumours at necropsy).
`C[C@@H](NC(=O)N1C(=O)[C@H](Cc2ccnc(N)c2)[C@H]1C(=O)O)C1CCCCC1` gave an elevated neutrophil of 2.5% (healthy Chinese adult volunteers; continuous intravenous infusion, dose not given, 5.0 days, CTCAE 5.0, all doses).
The sodium of `CCc1ccc(CC/C=C/c2ccc3c(c2)C(=O)CC3)cc1` is reported as 143 mM (Sprague-Dawley rat, male, serum; oral, 30 mg/kg/day, 14 days).
`CO[C@H]1C[C@@H]2CC[C@@H](C)[C@@](O)(O2)C(=O)C(=O)N2CCCC[C@H]2C(=O)O[C@H]([C@H](C)C[C@@H]2CC[C@@H](OC(=O)NCCOCCOCCOCCOCCOCCOCCOCCOCCC(=O)N3CCc4cc(Cn5nc(-c6ccc7oc(N)nc7c6)c6c(N)ncnc65)ccc4C3)[C@H](OC)C2)C[C@@H](O)[C@H](C)/C=C(\C)[C@@H](O)[C@@H](OC)C(=O)[C@H](C)C[C@H](C)/C=C/C=C/C=C/1C` — result for “deaths due to TRAEs”: 0% (phase 1 dose escalation; advanced solid tumour patients; intravenous, 10 mg weekly, any grade).
For `O=S(=O)(Nc1ccccc1)c1ccc(NC(=S)Nc2ccccc2)cc1`, “blood chemistry level” read 9.9 mg/dL (refers to: Ca; female mouse, blood; oral, 80 mg/kg daily, 14 days).
Under “grade 3 abdominal distension”, `COc1cc2c(Oc3ccc4[nH]c(C)cc4c3F)ccnc2cc1OCC1(N)CC1` is recorded as 0% (paediatric recurrent refractory sarcoma; 12 mg).
Under “ALT increased, any grade”, `C=CC(=O)N1CC[C@H](n2nc(C#Cc3cc(OC)cc(OC)c3)c3c(N)ncnc32)C1` is recorded as 18.2% (human patients; oral, dose not given, QD regimen, adverse drug reaction, with: sevelamer hydrochloride).
For `O=C(Nc1ccc(Cl)cc1)Nc1ccc(Cl)c(Cl)c1`, “final permeate concentration” read 0.35 nM (ultrafiltration; cow milk whey; 200 nM nominal in whole milk).
`CC[C@H](C)[C@@H]1NC(=O)[C@@H]2CSSC[C@H](NC(=O)[C@H](CCCNC(=N)N)NC(=O)[C@@H]3CSSC[C@H](NC1=O)C(=O)N[C@@H]([C@@H](C)O)C(=O)N[C@@H](CCCNC(=N)N)C(=O)NCC(=O)N[C@@H](Cc1ccccc1)C(=O)N3)C(=O)N[C@@H](CC(C)C)C(=O)N[C@H]1CSSC[C@H](NC(=O)[C@H](C(C)C)NC(=O)CNC(=O)[C@H](CCCNC(=N)N)NC(=O)[C@H](CCCNC(=N)N)NC1=O)C(=O)N[C@@H](CCCNC(=N)N)C(=O)N2` — result for “alveolar macrophage aggregation score”: 1 to 2 (Sprague-Dawley rat, female, lung; 10 mg/kg, histopathology, multifocal; direction not given).
With `CC(C)C(=O)OC[C@H]1O[C@@H](n2ccc(NO)nc2=O)[C@H](O)[C@@H]1O` the bench-top stability was 102 ± 1.9% (rat amniotic fluid dialysate; 5 ng/mL, 6 h, room temperature, low concentration, with: NHC 25 ng/mL).

Some of these lines once more:
The sodium of `CCc1ccc(CC/C=C/c2ccc3c(c2)C(=O)CC3)cc1` is reported as 143 mM (Sprague-Dawley rat, male, serum; oral, 30 mg/kg/day, 14 days).
`CO[C@H]1C[C@@H]2CC[C@@H](C)[C@@](O)(O2)C(=O)C(=O)N2CCCC[C@H]2C(=O)O[C@H]([C@H](C)C[C@@H]2CC[C@@H](OC(=O)NCCOCCOCCOCCOCCOCCOCCOCCOCCC(=O)N3CCc4cc(Cn5nc(-c6ccc7oc(N)nc7c6)c6c(N)ncnc65)ccc4C3)[C@H](OC)C2)C[C@@H](O)[C@H](C)/C=C(\C)[C@@H](O)[C@@H](OC)C(=O)[C@H](C)C[C@H](C)/C=C/C=C/C=C/1C` — result for “deaths due to TRAEs”: 0% (phase 1 dose escalation; advanced solid tumour patients; intravenous, 10 mg weekly, any grade).
For `O=S(=O)(Nc1ccccc1)c1ccc(NC(=S)Nc2ccccc2)cc1`, “blood chemistry level” read 9.9 mg/dL (refers to: Ca; female mouse, blood; oral, 80 mg/kg daily, 14 days).
